Experimental data pooled from the literature.
Each line is one published result; not all experiments were run side by side. “And” joins repeats or separate records; there may be more than shown. Numbers after ± are the reported error.
HRH1: Histamine H1 receptor (HRH1, Homo sapiens, UniProt P35367)
Sequence of UniProt P06276 (whole entry, looked up): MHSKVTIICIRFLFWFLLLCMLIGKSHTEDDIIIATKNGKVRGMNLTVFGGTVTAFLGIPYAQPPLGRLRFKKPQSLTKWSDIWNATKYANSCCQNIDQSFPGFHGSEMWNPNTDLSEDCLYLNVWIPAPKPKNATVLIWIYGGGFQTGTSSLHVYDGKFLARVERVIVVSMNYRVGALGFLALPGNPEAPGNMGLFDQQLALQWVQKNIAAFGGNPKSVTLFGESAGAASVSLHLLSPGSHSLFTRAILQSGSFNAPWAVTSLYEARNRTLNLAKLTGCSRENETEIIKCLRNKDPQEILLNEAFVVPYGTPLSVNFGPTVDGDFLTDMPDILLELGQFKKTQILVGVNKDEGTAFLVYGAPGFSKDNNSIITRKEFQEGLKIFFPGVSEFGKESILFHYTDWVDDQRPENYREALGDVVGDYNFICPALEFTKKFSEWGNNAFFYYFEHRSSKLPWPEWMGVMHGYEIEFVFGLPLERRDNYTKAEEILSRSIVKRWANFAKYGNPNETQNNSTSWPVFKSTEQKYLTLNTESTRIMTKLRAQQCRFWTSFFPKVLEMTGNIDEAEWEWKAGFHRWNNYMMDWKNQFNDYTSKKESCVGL
Sequence of UniProt P35367 (whole entry, looked up): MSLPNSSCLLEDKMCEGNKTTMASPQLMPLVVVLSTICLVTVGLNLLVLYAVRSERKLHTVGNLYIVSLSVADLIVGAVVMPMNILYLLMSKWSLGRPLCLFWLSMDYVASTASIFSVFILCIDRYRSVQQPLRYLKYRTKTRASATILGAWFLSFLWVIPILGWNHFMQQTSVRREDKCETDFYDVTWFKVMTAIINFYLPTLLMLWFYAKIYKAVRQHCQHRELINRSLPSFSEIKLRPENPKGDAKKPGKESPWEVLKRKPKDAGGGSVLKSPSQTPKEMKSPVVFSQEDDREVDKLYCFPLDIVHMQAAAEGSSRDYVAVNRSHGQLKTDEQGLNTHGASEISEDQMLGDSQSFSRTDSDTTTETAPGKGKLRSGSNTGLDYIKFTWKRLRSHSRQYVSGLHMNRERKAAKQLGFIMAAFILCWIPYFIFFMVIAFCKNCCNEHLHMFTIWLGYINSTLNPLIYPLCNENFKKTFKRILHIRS
Sequence of UniProt Q62351 (whole entry, looked up): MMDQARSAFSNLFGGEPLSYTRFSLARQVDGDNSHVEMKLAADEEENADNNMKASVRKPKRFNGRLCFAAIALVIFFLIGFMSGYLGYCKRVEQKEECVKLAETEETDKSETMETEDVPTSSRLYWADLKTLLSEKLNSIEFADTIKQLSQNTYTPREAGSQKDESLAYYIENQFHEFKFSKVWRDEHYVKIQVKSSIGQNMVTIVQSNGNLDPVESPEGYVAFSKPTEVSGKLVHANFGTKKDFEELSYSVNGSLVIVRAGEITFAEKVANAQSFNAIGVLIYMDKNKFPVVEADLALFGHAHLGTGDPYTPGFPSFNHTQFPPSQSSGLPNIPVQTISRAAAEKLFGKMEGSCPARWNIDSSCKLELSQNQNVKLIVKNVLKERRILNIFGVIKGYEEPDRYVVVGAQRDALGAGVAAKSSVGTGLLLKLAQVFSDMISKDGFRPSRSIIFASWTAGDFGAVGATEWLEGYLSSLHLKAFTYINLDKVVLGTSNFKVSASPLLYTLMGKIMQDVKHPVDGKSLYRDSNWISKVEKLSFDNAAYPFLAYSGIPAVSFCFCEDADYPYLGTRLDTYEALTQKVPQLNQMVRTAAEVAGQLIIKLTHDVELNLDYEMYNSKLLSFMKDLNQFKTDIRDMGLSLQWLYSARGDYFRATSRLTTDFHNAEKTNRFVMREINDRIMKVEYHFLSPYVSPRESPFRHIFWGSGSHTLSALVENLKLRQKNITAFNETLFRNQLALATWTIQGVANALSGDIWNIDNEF
Sequence of UniProt P81908 (whole entry, looked up): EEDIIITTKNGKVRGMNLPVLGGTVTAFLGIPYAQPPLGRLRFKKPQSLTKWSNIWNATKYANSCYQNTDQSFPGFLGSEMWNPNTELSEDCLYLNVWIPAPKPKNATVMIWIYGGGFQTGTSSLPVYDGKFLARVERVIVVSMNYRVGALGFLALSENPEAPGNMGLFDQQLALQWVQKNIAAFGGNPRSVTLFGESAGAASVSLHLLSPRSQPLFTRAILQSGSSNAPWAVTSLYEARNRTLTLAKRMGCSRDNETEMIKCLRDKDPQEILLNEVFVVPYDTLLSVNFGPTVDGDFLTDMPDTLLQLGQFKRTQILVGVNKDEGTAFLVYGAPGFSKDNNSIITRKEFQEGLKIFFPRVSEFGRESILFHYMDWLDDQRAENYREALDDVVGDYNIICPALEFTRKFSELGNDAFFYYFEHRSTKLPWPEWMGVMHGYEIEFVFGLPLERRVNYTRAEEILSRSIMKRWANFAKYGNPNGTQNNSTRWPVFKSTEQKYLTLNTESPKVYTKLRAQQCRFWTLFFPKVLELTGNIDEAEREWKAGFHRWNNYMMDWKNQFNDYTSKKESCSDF
Sequence of UniProt O43704 (whole entry, looked up): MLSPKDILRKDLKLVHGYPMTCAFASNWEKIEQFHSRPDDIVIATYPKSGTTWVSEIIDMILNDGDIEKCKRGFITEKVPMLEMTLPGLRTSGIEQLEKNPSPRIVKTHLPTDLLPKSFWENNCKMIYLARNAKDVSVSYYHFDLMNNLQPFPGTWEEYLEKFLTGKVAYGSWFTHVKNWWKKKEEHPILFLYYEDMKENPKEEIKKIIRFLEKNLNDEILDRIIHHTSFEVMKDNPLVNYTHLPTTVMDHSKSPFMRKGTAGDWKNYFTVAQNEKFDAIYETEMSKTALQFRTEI
Sequence of UniProt P35414 (whole entry, looked up): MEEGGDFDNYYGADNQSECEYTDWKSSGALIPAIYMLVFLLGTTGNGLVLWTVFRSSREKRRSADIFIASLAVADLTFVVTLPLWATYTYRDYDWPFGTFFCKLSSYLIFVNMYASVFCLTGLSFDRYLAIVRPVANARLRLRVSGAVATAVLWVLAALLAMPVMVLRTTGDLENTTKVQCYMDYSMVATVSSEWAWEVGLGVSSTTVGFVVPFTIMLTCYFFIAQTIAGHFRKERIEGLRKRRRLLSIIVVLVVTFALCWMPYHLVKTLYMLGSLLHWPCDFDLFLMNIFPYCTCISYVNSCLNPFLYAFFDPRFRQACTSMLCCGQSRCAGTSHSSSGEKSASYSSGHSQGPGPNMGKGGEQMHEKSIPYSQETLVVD
Sequence of UniProt P0A3M6 (whole entry, looked up): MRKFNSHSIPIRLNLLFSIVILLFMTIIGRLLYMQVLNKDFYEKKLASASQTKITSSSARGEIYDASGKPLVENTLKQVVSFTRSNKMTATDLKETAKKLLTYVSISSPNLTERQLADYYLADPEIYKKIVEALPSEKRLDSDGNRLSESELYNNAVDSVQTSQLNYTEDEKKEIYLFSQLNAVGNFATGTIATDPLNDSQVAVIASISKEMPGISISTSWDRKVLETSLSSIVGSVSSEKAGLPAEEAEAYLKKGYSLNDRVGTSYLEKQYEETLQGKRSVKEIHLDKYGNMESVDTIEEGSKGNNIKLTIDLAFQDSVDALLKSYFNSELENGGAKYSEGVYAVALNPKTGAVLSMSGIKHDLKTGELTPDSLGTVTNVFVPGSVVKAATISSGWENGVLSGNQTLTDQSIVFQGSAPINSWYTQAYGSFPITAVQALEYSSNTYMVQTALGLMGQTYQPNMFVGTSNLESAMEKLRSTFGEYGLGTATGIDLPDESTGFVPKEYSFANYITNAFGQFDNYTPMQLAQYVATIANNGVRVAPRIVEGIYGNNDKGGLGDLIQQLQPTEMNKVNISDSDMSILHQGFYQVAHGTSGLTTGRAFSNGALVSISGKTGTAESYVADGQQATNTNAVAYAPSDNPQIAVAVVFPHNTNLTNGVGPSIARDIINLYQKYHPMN
Sequence of UniProt Q704Y3 (whole entry, unmodified, looked up): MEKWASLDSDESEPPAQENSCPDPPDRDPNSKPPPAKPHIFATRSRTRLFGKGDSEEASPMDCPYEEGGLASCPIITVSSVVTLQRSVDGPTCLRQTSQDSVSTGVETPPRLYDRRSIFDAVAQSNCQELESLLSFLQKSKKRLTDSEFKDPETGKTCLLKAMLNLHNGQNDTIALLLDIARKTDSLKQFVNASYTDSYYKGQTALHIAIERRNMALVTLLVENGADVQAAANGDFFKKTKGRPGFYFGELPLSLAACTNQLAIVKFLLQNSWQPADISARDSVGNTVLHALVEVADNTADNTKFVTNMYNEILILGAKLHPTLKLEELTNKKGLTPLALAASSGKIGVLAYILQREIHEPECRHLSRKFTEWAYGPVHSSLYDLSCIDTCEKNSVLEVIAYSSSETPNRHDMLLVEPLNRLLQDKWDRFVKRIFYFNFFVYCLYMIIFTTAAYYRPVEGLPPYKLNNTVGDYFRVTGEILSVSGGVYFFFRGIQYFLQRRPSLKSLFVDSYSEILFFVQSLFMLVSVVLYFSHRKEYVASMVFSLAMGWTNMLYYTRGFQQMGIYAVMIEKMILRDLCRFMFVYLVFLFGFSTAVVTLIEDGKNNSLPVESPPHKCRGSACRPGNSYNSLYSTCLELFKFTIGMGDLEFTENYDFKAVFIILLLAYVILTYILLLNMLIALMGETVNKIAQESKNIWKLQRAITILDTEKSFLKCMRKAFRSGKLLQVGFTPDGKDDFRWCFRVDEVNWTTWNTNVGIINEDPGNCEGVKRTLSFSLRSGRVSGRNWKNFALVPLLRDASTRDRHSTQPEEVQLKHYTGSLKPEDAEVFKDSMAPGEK
Sequence of UniProt O43570 (whole entry, looked up): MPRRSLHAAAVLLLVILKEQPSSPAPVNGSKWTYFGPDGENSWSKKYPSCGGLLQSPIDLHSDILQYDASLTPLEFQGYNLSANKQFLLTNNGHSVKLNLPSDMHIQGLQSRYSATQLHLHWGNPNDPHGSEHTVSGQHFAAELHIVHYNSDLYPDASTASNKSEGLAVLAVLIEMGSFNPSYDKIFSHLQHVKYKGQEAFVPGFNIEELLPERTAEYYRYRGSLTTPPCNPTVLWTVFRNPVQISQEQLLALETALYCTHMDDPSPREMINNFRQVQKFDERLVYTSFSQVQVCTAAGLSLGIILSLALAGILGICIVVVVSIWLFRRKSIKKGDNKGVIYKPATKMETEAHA

O=C1c2ccncc2C(=O)c2c1[nH]c1ccccc21
GTPase activity (DNM1L (Homo sapiens, UniProt O00429); inhibitor, immunoprecipitated protein; PAH hPASMC; concentration not given): inhibited

Cc1cc(O)cc(C)c1C[C@H](C)C(=O)N[C@@H]1C/C=C/CC[C@@H](C(N)=O)NC(=O)[C@H](Cc2ccccc2)NC(=O)[C@H](Cc2ccccc2)NC1=O
Ke (Mu-type opioid receptor (Cavia porcellus, UniProt A0ACM8Q262); antagonist; guinea pig ileum; µ opioid): 157 nM

CC1(C)CC(=O)c2c(nc3c(c(C#N)cn3Cc3ccccc3)c2-c2ccc([N+](=O)[O-])cc2)C1
IC50 fold change (Gag-Pol polyprotein, reverse transcriptase (gag-pol, Human immunodeficiency virus type 1 group M subtype B, UniProt P04585); DNA polymerase activity, inhibitor, FRET; reference: mutant over wild type RT): 1.9

CN(C)C(=O)Oc1ccc[n+](C)c1
efficacy (Cholinesterase (BCHE, Homo sapiens, UniProt P06276); concentration not given, Triton): -86.2 ± 16.1%

CC(=O)N[C@@H](C)C(=O)N1CCC[C@H]1C(=O)N[C@@H](CC(C)C)C(=O)N[C@H](C(=O)N[C@@H](CCCNC(=N)N)C(=O)NCC(=O)N[C@@H](CO)C(=O)N[C@@H](CS)C(=O)N[C@@H](CCCNC(=N)N)C(=O)N[C@@H](CCCCN)C(=O)N[C@@H](CCCNC(=N)N)C(=O)N[C@@H](CC(N)=O)C(=O)N[C@@H](CCCNC(=N)N)C(=O)N[C@@H](CO)C(=O)N1CCC[C@H]1C(=O)N[C@@H](CCC(=O)O)C(=O)N[C@@H](CCCNC(=N)N)C(N)=O)[C@@H](C)O
ΔH (WDR5 (Homo sapiens, UniProt P61964); binding, competitor of LANA peptide, ITC; pH 7.0, 20 °C, WIN motif peptide): -2.1 kcal/mol

CC(=O)c1cnc2ccc(-c3cc(Cl)c(O)c(Cl)c3)nc2c1N[C@H]1CC[C@H](CN(C)C)CC1
efficacy (Cholinesterase (BCHE, Homo sapiens, UniProt P06276); concentration not given, Triton): -49.3 ± 3.69%

O=C(O)c1ccc2nc(-c3cc(Cl)cc(Cl)c3)oc2c1
probe binding remaining (Transthyretin (TTR, Homo sapiens, UniProt P02766); fluorescent probe exclusion; human serum; 10 µM, 15:00:00): 10.5% and 12.1% and 9.8% and 6.49%

COc1cc(CCC(=O)N2CCC(Cc3ccccc3)CC2)ccc1OC(=O)N1CCOCC1
selectivity ratio (Cholinesterase (BCHE, Equus caballus, UniProt P81908); Ellman; equine serum BuChE; reference: AChE IC50 over BuChE IC50): 1.6

CN(C(=O)n1cnc(-c2ccc[n+]([O-])c2)c1)C1CCCCC1
probe labelling (Protein S100-A16 (Rattus norvegicus, UniProt A0ACM8QDC9); competitive ABPP with azido-FP probe; rat brain membrane fraction; 10 µM, unit not given; reference: DMSO): -1.1

C[C@H]1CN(c2n[nH]c3nc(N[C@H]4CC[C@H](NS(=O)(=O)CCC(F)(F)F)CC4)ncc23)CCO1
remaining binding (MICOS complex subunit MIC60 (Homo sapiens, UniProt Q16891); Kinobeads competition, refers to: IMMT; 0.16 µM, unit not given; reference: vehicle): 0.95

CC(C)C[C@@H](C=O)NC(=O)[C@H](CC(C)C)NC(=O)[C@H](CC(C)C)NC(=O)OCc1ccccc1
AUC ratio (Gag-Pol polyprotein, integrase (gag-pol, Human immunodeficiency virus 1, UniProt P12497); integrase multimerization, BiFC flow cytometry; 1 µM; reference: DMSO): 1.25

Cc1cc(=O)oc2cc(OCCCC[Se]C#N)ccc12
selectivity ratio (CA12 (Homo sapiens, UniProt O43570); stopped-flow CO2 hydration; reference: Ki CA II over Ki CA XII): > 1940

C=C(F)c1sc(CNCCCNc2cc(O)c3ccccc3n2)c(C)c1Br
efficacy (Cholinesterase (BCHE, Homo sapiens, UniProt P06276); concentration not given, Triton): -76.2 ± 9.21%

O=C(O)c1cccc(N(Cc2cccnc2)c2ccc(OC(F)F)c(OC(F)F)c2)c1
fold change (Fatty acid-binding protein, heart (Homo sapiens, UniProt P05413); binding, affinity selection mass spectrometry; 100 nM, pooled screen; reference: other proteins): 22.9

O=C(c1ccc(Cl)cc1)N1CCN2C(=O)N(OC(=O)N3CCOc4ccccc43)C(=O)C2C1 (centres unmarked)
probe labelling ratio (Keratin, type II cytoskeletal 1 (KRT1, Homo sapiens, UniProt P04264); MS-based ABPP; SW-620 conditioned medium; 10 µM, median protein ratio; reference: compound over DMSO): 2.49

[2H]c1c([2H])c([C@]2([2H])CCCN2C(=O)C(C)(C)Oc2ccc3cn[nH]c3c2)c([2H])c([2H])c1C([2H])([2H])[2H]
remaining binding (CDC42BPA (Homo sapiens, UniProt Q5VT25); KINOMEscan; 1 µM; reference: DMSO control): 77%

O=C1NC(=O)[C@](CNC(=O)c2cnn(-c3ccccc3)n2)(C2CC2)N1
activity (F10 (Homo sapiens, UniProt P00742); inhibitor; concentration not given): inactive

Nc1nc2c(ncn2[C@H]2C[C@H](O)[C@@H](COP(=O)(O)OP(=O)(O)OP(=O)(O)O)O2)c(=O)[nH]1
kcat (Gag-Pol polyprotein, reverse transcriptase (gag-pol, Human immunodeficiency virus type 1 group M subtype B, UniProt P04585, K653R); nucleotide misincorporation, steady-state kinetics; K66R RT, added: matched template/primer, template T): 0.138 ± 0.0128 s⁻¹

CN(C(=O)n1cnc(-c2ccc[n+]([O-])c2)c1)C1CCCCC1
fold change (Abhydrolase domain-containing protein 11 (Rattus norvegicus, UniProt D3ZXK4); enzyme activity, ABPP; rat, brain; oral, 100 mg/kg/day, 7 days; reference: vehicle): -2.8

Clc1cccc(-c2cccc(Cl)c2)c1
IC25 (Androgen receptor (AR, Homo sapiens, UniProt P10275); reporter gene, antagonist; 24 h, added: DHT 2 nM): 1300 nM

COc1cc(N)c(Cl)cc1C(=O)NC1CN2CCC1CC2 (centres unmarked)
log2 fold change (Mas-related G-protein coupled receptor member G (MRGPRG, Homo sapiens, UniProt Q86SM5); β-arrestin recruitment, TANGO luminescence, refers to: MRGPRG; concentration not given; reference: basal luminescence): 0.002

O=C(Nc1cccnn1)N1CCC(=Cc2cccc(Oc3ccc(C(F)(F)F)cn3)c2)CC1
inhibition of binding (HRH1; radioligand binding; 50 µM, added: [3H]pyrilamine): 75%

CC[C@@H](C)[C@@H](NC(=O)[C@@H](Cc1ccc(O)cc1)NC(=O)[C@H]1CCCN1C(=O)[C@@H](CCCNC(=N)N)NC(=O)[C@H](N)Cc1c[nH]cn1)C(=O)N[C@H](C)C(=O)N[C@H](Cc1c[nH]cn1)C(=O)N[C@H](CCCNC(=N)N)C(=O)N[C@H](CCCCNC(=O)c1cccc(S(=O)(=O)F)c1)C(=O)N[C@H](Cc1ccc(O)cc1)C(=O)N[C@H](CO)C(=O)N[C@H](Cc1ccccc1)C(N)=O
surface expression (Transferrin receptor protein 1 (Tfrc, Mus musculus, UniProt Q62351); flow cytometry; MC-38; 6 h, unit not given; reference: 0 h): 0.972 and 0.981

O=C(Nc1cnccc1Cl)N1CCN(Cc2ccc3c(c2)OC(F)(F)O3)CC1
inhibition of binding (HRH1; radioligand binding; 50 µM, added: [3H]pyrilamine): 23%

COc1cccc(OC)c1C(=O)N[C@@H]1C(=O)N2[C@@H]1SC(C)(C)[C@@H]2C(=O)O
kinact/KI (Penicillin-binding protein 1A (pbpA, Streptococcus pneumoniae, UniProt Q8DR59); inhibitor): 5.4 ± 1.2 M⁻¹ s⁻¹

COc1cc(CCC(=O)N2CCC(Cc3ccccc3)CC2)ccc1OC(=O)N(C)C
selectivity ratio (Cholinesterase (BCHE, Equus caballus, UniProt P81908); Ellman; equine serum BuChE; reference: AChE IC50 over BuChE IC50): 6.6

CCOC(=O)COc1ccc2c(=O)c3ccccc3oc2c1
reaction velocity (ache (Electrophorus electricus, UniProt O42275); enzyme activity; 3.36 µM, added: substrate 1.73 mM; higher = faster reaction): 0.0014 a.u.

O=C1C(P(=O)(O)O)CC(O)N1O (centres unmarked)
thermal shift (Gamma-enolase (ENO2, Homo sapiens, UniProt P09104); recombinant protein; 1 µM, protein 9 nM): ~12 °C

CN1CCN(c2cc(-c3ccncc3)c(-c3ccc4ccccc4c3)nn2)CC1
activation (Apelin receptor (APLNR, Homo sapiens, UniProt P35414); agonist, FLIPR; 12.5 µM): -1.3%

CC[C@H](C)[C@H]1O[C@]2(C=C[C@@H]1C)C[C@@H]1C[C@@H](C/C=C(\C)[C@@H](O[C@H]3C[C@H](OC)[C@@H](O[C@H]4C[C@H](OC)[C@@H](O)[C@H](C)O4)[C@H](C)O3)[C@@H](C)/C=C/C=C3\CO[C@@H]4[C@H](O)C(C)=C[C@@H](C(=O)O1)[C@]34O)O2
maximal response (GABA-A receptor; alpha-1/beta-2/gamma-2 (Rattus norvegicus, UniProt P18508+P62813+P63138); chloride current, agonist, whole-cell patch clamp; HEK293 expressing GABAA; 30 s; reference: maximum): 45%

CC1=C(C)C(=O)c2ccccc2C1=O
P+QA− recombination rate (Reaction center protein M chain, QA site (pufM, Cereibacter sphaeroides, UniProt P0C0Y9); charge recombination; Rhodobacter sphaeroides, LDAO detergent solution; pH 7.8, 298 K, quinone reconstituted in QA site): 9.5 s⁻¹

CCCCC/C=C\C/C=C\C/C=C\C/C=C\CCCC(=O)NCCO
Hill coefficient (Trpv1 (Mus musculus, UniProt Q704Y3, N552Q); ion current, agonist, whole-cell patch clamp; N552Q): 3.34 ± 0.31

CC1(C)S[C@@H]2[C@H](NC(=O)[C@H](N)c3ccccc3)C(=O)N2[C@H]1C(=O)O
kinact/KI (Penicillin-binding protein 2B (Streptococcus pneumoniae, UniProt P0A3M6); inhibitor): 6700 ± 240 M⁻¹ s⁻¹

CC(=O)NC1CCN(c2ncnc3[nH]cc(-c4cccc(Cl)c4)c23)CC1
potency ratio (LRRK2 (Homo sapiens, UniProt Q5S007); NanoBRET; cells; reference: PF-06447475, fold lower potency): > 13 fold

COc1cc(Br)cc(Br)c1Oc1cc(Br)cc(Br)c1O
apparent Vmax (SULT1B1 (Homo sapiens, UniProt O43704); sulfonation, substrate): 121 nmol/min/mg protein

COc1ccc(N2C(=O)N(c3c(C)cccc3Cl)Cc3cnc(Nc4ccc(C5CCN(C)CC5)cc4OC)nc32)nc1
inhibition (BRSK2 (Homo sapiens, UniProt Q8IWQ3); kinase activity; 0.5 µM): 10%

CC(CCc1ccccc1)NC(C)C(O)c1ccc(O)cc1 (centres unmarked)
efficacy (Cholinesterase (BCHE, Homo sapiens, UniProt P06276); concentration not given, Triton): -92.2 ± 6.19%

CC1(C)Cc2c(sc(NC(=O)c3ccn[nH]3)c2C(N)=O)C(C)(C)O1
maximum current increase (CFTR (Homo sapiens, UniProt P13569, D924R/R347D); channel current, activator, inside-out patch clamp; CHO cells, transfected): 302 ± 62%

Repeated from above:
CN(C)C(=O)Oc1ccc[n+](C)c1
efficacy (Cholinesterase (BCHE, Homo sapiens, UniProt P06276); concentration not given, Triton): -86.2 ± 16.1%

CC1(C)Cc2c(sc(NC(=O)c3ccn[nH]3)c2C(N)=O)C(C)(C)O1
maximum current increase (CFTR (Homo sapiens, UniProt P13569, D924R/R347D); channel current, activator, inside-out patch clamp; CHO cells, transfected): 302 ± 62%
